Experimental data gathered from unrelated publications.
Each numbered part is a random draw from the data of one study; scales do not carry over between parts. Changes are numbered by the printed parent chain.

Series 1
Target: RING finger protein unkempt homolog, zinc fingers 1-6, GST-SBP tag (UNK, Homo sapiens, UniProt Q9C0B0, residues 30-357)
Sequence of UniProt Q9C0B0 (30-357, looked up): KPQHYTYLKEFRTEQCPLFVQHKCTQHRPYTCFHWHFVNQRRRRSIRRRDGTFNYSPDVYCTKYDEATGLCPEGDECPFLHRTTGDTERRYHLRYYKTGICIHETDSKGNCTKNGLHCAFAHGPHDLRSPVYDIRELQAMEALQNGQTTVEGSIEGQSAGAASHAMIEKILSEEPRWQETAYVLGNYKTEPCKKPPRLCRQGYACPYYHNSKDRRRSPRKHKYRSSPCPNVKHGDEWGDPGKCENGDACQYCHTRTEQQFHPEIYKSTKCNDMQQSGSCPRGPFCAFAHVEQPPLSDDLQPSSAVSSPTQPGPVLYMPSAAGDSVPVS
Technique: RNA Bind-n-Seq
Form: RNA
Sample: in vitro
Concentration: not given
Setting: RNA with constant flanks, ends assumed
Reference: input RNA pool
Direction: higher = stronger binding
Constant ends, left off below: GGGAGUUCUACAGUCCGACGAUC … CAACAGAGGAUUGAGCAUCA
Sequence | bound/input enrichment [ratio]
UUAGGAGAAGAUUGCAGAUGAUAGAAUGUCCUAUCCGCCCAUCCCCUGCUUUGCAGCUCAAACCGUUACUCUAAGCUUUGGGUAUUCUACAAAGUUUUCUUAAUUCUUGGAGCAGAGUAU | 0.198
ACGUGCUGCCAGCUGAGAGACUACCUGUCCGCCGGAGCAGAAACCUUCCUGCUGCGACUUUACCGGAAAACUUUUGAGAAGGAUGGCAAAGCUGAAGAAGUGUGGGUAAAUGUUAGAAAG | 0.145
AAGGUUAAAUUGCUCACUGGCAAACGAGUUCAGCUGGCAGAAGAUCUCAAGAAAGUCCGAGAAAUUCAAGAAAAGCUUGAUGCUUUCAUUGAAGCUCUUCACCAGGAGAAGUAGACUGUG | 0.22
CAGCUGGAAGAUGGCCGCACCCUGUCAGACUACAACAUCCAGAAAGAGUCCACCCUGCACUCCGUCCUUCGCCUCAGAGGUGGGAUGCAGAUCUUUGUGAAGACCCUGACAGGCAAAACC | 0.152
UGUGUCCCUGCCAUGAUCAGGUGUCUAUCAGAUGACGUAAAAACCAAGUUGCGUUCCGGUUCCGCCAUAAGCUCCUUGGGCCAGUGUGUUGAAGAACUUACCCUUAACAGUAUUGAUGCU | 0.433
UUCUAGUGAAUCUGUGAUAUUGGAAAUUAUUAUUAUGGACAGGGUCAUCCCAUGAAGCCUCACCGAAUCCGCAUGACCCAUAACUUGCUGUUAAAUUAUGGCUUAUACAGAAAAAUGGAA | 0.587
AAAAAUGGAGACAAACAAGAUCUUUGAUGUGUUUCAUGUUUGUGGGCAGGUGAACAAUAUUUCCGAGUAUUUUAAAAAAUCAUUUCUUACAGAGAAAUUAAUUUGCAGUUGAAUGAAAGC | 0.331
GAGAGGGAUGGUGGGACCAGUUACUCUCCACAAGAAAAUUCACACAACCACAGUGCUCUUCACCGUUCAAAUUCACAUUCUUCUAAUCCAAGCAAUAACCCAAGCAAAACUUCAGAUGCA | 0.274

Series 2
Target: Sal-like protein 4, full length isoform B (SALL4, Homo sapiens, UniProt Q9UJQ4-2, residues 1-616)
Technique: universal PBM
Form: double-stranded DNA, one strand shown
Sample: in vitro
Concentration: not given
Setting: 8-mer, flanks averaged, mean of replicates
Direction: higher = stronger binding
Residues (chain): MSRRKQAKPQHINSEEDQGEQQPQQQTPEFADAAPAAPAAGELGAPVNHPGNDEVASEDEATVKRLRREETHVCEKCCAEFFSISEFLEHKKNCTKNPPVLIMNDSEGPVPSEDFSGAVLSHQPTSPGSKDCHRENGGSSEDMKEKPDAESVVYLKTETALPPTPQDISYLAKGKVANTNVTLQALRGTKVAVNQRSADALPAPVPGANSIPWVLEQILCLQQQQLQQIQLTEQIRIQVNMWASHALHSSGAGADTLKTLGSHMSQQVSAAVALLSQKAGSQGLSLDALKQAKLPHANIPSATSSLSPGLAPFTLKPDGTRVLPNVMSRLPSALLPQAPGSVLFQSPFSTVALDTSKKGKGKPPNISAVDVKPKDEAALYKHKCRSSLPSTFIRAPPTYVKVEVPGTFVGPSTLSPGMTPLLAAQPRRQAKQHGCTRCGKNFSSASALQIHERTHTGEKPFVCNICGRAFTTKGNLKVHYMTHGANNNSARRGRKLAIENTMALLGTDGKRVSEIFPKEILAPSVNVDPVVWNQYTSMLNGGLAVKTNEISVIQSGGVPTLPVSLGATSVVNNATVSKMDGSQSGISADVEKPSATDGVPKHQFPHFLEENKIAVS
Sequence | E-score
AGAATCAA | 0.0621
GTAGGGGA | -0.14
GGTCTTTA | 0.227
CCTGGAAC | -0.152
ACGCTATG | 0.146
CTGATAGA | 0.142
CCTTCATA | 0.241
GTGCGACA | -0.193
CACGGAGC | -0.106
CGGATCCC | -0.306
GCGGTTGA | -0.165
CTCGCACA | -0.0575
TCTCGGAA | -0.025
AGTAGGGG | -0.0556
AATTCTAG | 0.0993
CCGACCGC | -0.239
AAAAACCA | 0.271
CGGCGGTA | -0.276
TAAAACGA | 0.0336
CTATGCCC | -0.0766

Series 3
Target: UBE2M UBC core domain (UniProt P61081)
Technique: yeast two-hybrid
Sample: yeast
Setting: mostly zero background
Reference: not given
Direction: higher = stronger interaction
B1: UBE4B RING domain (UniProt O95155); chain KNARAEIDYSDAPDEFRDPLMDTLMTDPVRLPSGTIMDRSIILRHLLNSPTDPFNRQTLTESMLEPVPELKEQIQAWMREKQNSDH
B2: CBLL1 RING domain (UniProt Q75N03); chain GEKDDTPVHFCDKCGLPIKIYGRMIPCKHVFCYDCAILHEKKGDKMCPGCSDPVQRIEQCT
B3: MARCHF2 RING domain (UniProt Q9P0N8); chain RLLSTVIRALDTPSDGPFCRICHEGANGECLLSPCGCTGTLGAVHKSCLEKWLSSSNTSYCELCHTEFAVEKRPRPLTEWL
B4: TRIM74 RING domain (UniProt Q86UV6); chain SLLELEDWLQCPICLEVFKESLMLQCGHSYCKGCLVSLSYHLDTKVRCPMCWQVVDGSSSLP
B5: RNF7 RING domain (UniProt Q9UBF6); chain AICRVQVMDACLRCQAENKQEDCVVVWGECNHSFHNCCMSLWVKQNNRCPLCQQDWVVQRIGK
B6: RNF32 RING domain (UniProt Q9H0A6); chain VQALRRETHECSICLAPLSAAGGQRVGAGRRSREMALLSCSHVFHHACLLALEEFSVGDRPPFHACPLCRSCYQKKILEC
B7: TRIM28 RING domain (UniProt Q13263); chain GAEALELLEHCGVCRERLRPEREPRLLPCLHSACSACLGPAAPAAANSSGDGGAAGDGTVVDCPVCKQQCFSKDIVE
Residues (chain): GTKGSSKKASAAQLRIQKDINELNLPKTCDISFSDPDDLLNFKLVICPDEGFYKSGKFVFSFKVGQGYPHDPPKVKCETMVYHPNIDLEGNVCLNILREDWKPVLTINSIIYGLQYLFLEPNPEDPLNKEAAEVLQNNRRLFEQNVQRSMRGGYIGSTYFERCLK
Sequence | lacZ reporter activity
EDVLSKDAGECAICLEELQQGDTIARLPCLCIYHKGCIDEWFEVNRSCPEHPSD (ZNRF2 RING domain (UniProt Q8NHG8)) | 0
B1 (UBE4B RING domain) | 0
B2 (CBLL1 RING domain) | 0
B3 (MARCHF2 RING domain) | 0
SNNDLASLFECPVCFDYVLPPILQCQSGHLVCSNCRPKLTCCPTCRGPLGSIRNLA (SIAH1 RING domain (UniProt Q8IUQ4)) | 0
B4 (TRIM74 RING domain) | 0
B5 (RNF7 RING domain) | 0
FLSKVEETFQCICCQELVFRPITTVCQHNVCKDCLDRSFRAQVFSCPACRYDLGRSYAMQ (UHRF1 RING domain (UniProt Q96T88)) | 0
KITELNPHLMCALCGGYFIDATTIVECLHSFCKTCIVRYLETNKYCPMCDVQVHKTRPLL (PCGF2 RING domain (UniProt P35227)) | 0
B6 (RNF32 RING domain) | 0
B7 (TRIM28 RING domain) | 0

Series 4
Target: CCNA2, cyclin fold, Cln2 fusion (human)
Technique: yeast growth competition, sequencing
Sample: yeast
Setting: strong parent motif
Reference: not given
Direction: higher = stronger binding
Starting sequence: PKN2 docking peptide (human); VSAVRKLDFSDTM
Substitution | normalised enrichment score
VSAVRKLVFSDTM [D8V] | 5.04
VNAVRKLDFSDTM [S2N] | 5.18
VSAVRKLDFSVTM [D11V] | 5.24
VSAVRKLDFSRTM [D11R] | 5.08
VSAYRKLDFSDTM [V4Y] | 5.6
VSQVRKLDFSDTM [A3Q] | 0.589
VSPVRKLDFSDTM [A3P] | 2.79
VSAVFKLDFSDTM [R5F] | 0.641
VSEVRKLDFSDTM [A3E] | -0.14
VSAVRKRDFSDTM [L7R] | 0.416
VSAVRKLDFSDIM [T12I] | 5.22
VSAVRKLDFSDFM [T12F] | 5.25
VSAVRKQDFSDTM [L7Q] | -0.0486
VSAVRSLDFSDTM [K6S] | 4.71
VSAVRKLDFSDQM [T12Q] | 5.36
VSAVRKLDFSLTM [D11L] | 5.14
VSAVRKLDFSDKM [T12K] | 5.86
VSAVRKLEFSDTM [D8E] | 4.64
VSAERKLDFSDTM [V4E] | 1.27
VSAVRKADFSDTM [L7A] | 0.287
VSAVSKLDFSDTM [R5S] | 0.78
VSAVRKLDFSDNM [T12N] | 5.57
VSLVRKLDFSDTM [A3L] | 3.81
VSAVRKLDFQDTM [S10Q] | 5.08
VSAVRNLDFSDTM [K6N] | 2.63

Some of these lines once more (series 2):
Sequence | E-score
CTCGCACA | -0.0575
TCTCGGAA | -0.025
AGTAGGGG | -0.0556
AATTCTAG | 0.0993
CCGACCGC | -0.239
AAAAACCA | 0.271
